Measurements pooled from the literature.
Every numbered part comes from another study and shows a few of its results, in no order.

Series 1
Host: human
Medium: microsomes or S9
Concentration: 2 µM
Time: 0.5 h
Structure (SMILES) | remaining compound
CC(C)(C)OC(=O)CCc1nc(Cc2cccc3cccnc23)no1 | 0.751%
CS(=O)(=O)CCCC(=O)N(CC(=O)O)C1CCCCC1 | 79.2%
CCn1nc(C2CCCCN2C(=O)NC(C)C)c2c1CCOC2 (stereo not shown) | 68.9%
CC(C)c1c(C(O)c2ccccc2)[nH]c(=O)[nH]c1=O (stereo not shown) | 56.9%
Nc1cc(O)nc2nnc(SCc3nnnn3-c3ccc(Cl)c(Cl)c3)n12 | 84.7%
CCC(C)Nc1c(C(C)=O)c(=O)[nH]c2c(C(=O)OC)scc12 (stereo not shown) | 1.54%
Cc1onc2c(=O)n(C)nc(C(=O)N3CCN(C)CC3C)c12 (stereo not shown) | 62.9%

Series 2
Cell line: mouse MPNST tumor cells
Method: high-content immunofluorescence imaging
Item: nuclear SOX9
Concentration: 10 µM
Time: 12 h
Notes: mean of 2 replicates
Baseline: DMSO control
Reading: higher = more nuclear SOX9
Compound | nuclear SOX9 intensity
CCCCCCCCOc1ccc(-c2noc([C@@H]3CCC[N+]3=C(N)N)n2)cc1C(F)(F)F | 81.6 % of DMSO
CCC(CC)Nc1nc(C)c(-c2ccc(OC(F)(F)F)cc2OC)nc1OC | 106 % of DMSO
CC(C)(C)c1ccc2cc(C#N)c(C#N)cc2c1 | 152 % of DMSO
CC1=C(C(=O)OCCN(Cc2ccccc2)c2ccccc2)C(c2cccc([N+](=O)[O-])c2)C(P2(=O)OCC(C)(C)CO2)=C(C)N1 (stereo not shown) | 136 % of DMSO
O=C1[C@@H]2[C@H]3CC[C@H](C3)[C@@H]2C(=O)N1CCCCN1CCN(c2ncccn2)CC1 | 98 % of DMSO

Series 3
SMILES: COc1ccc2c(c1)O[C@H](c1ccc(OC)c(OC)c1)C[C@@H]2NC(=O)C1(c2ccc3c(c2)OC(F)(F)O3)CC1
Method: competition with immobilised ligand
Concentration: 1 µM
target | assay | remaining binding [%]
MAPK10 (Homo sapiens, UniProt P53779) | cell-free assay | 100
PIK3CA (Homo sapiens, UniProt P42336, E545A) | cell-free assay | 100
CSK (Homo sapiens, UniProt P41240) | cell-free assay | 100
TXK (Homo sapiens, UniProt P42681) | binding | 95
KIT (Homo sapiens, UniProt P10721, T670I/V559D) | cell-free assay | 100
CDK16 (Homo sapiens, UniProt Q00536) | cell-free assay | 100
GRK7 (Homo sapiens, UniProt Q8WTQ7) | cell-free assay | 100
KIT (Homo sapiens, UniProt P10721, L576P) | cell-free assay | 100
STK33 (Homo sapiens, UniProt Q9BYT3) | cell-free assay | 61
PRKACB (Homo sapiens, UniProt P22694) | cell-free assay | 99
FGR (Homo sapiens, UniProt P09769) | cell-free assay | 87

Series 4
Organism: Sarcocystis neurona
Read-out: parasite growth
Concentration: 10 µM
Time: 96 h
Notes: second screen
Baseline: untreated
Structure (SMILES) | log2 fold change
O=C(CCCN1CC=C(n2c(=O)[nH]c3ccccc32)CC1)c1ccc(F)cc1 | 0.0285
CN(C)[C@@H]1C(O)=C(C(=O)NCN2CCCC2)C(=O)[C@@]2(O)C(O)=C3C(=O)c4c(O)cccc4[C@@](C)(O)[C@H]3C[C@@H]12 | 0.23
CC(=O)OCC(=O)[C@@]1(O)CC[C@H]2[C@@H]3C[C@H](C)C4=CC(=O)C=C[C@]4(C)[C@H]3[C@@H](O)C[C@@]21C | 0.27
Cc1c2oc3c(C)ccc(C(=O)N[C@@H]4C(=O)N[C@H](C(C)C)C(=O)N5CCC[C@H]5C(=O)N(C)CC(=O)N(C)[C@@H](C(C)C)C(=O)O[C@@H]4C)c3nc-2c(C(=O)N[C@@H]2C(=O)N[C@H](C(C)C)C(=O)N3CCC[C@H]3C(=O)N(C)CC(=O)N(C)[C@@H](C(C)C)C(=O)O[C@@H]2C)c(N)c1=O | 0.17
Cc1ccc(O)c([C@H](CCN(C(C)C)C(C)C)c2ccccc2)c1 | 0.35
